Experimental data collected from several papers.
Protocols differ between the studies behind these lines.
Cell line: MDA-MB-231

Cc1cc(-c2ccc(S(=O)(=O)C3CC(C(=O)NC4(C#N)CC4)N(C(=O)C4(C(F)(F)F)CC4)C3)c(C(F)(F)F)c2)ccn1 (centres unmarked)
IC50 (cell growth or viability): > 100 µM

CC[C@H](C)/C=C/C=C/C(O)=C/C(=O)C(F)(F)Cl
IC50 (cell growth, CellTiter-Glo): 296 µM

CCNC(NN=Cc1ccc([N+](=O)[O-])o1)=[S+][Au-][Cl]
IC50 (cell growth or viability, resazurin): 26.8 µM

O=C1CS/C(=N\N=C\c2cccc3cc4ccccc4nc23)N1c1ccc(F)cc1
IC50 (cell growth or viability, MTT; 48 h): > 50 µM

Nc1ncnc2c1ncn2CCN1C(=O)/C(=N\N=C2/NC(=O)CS2)c2ccccc21
IC50 (cell growth or viability, SRB; 72 h): 56.5 µg/mL

Cc1cnc(Nc2ccc3c(c2)CCN(C(=O)/C=C/C(=O)c2ccc(Cl)cc2)C3)nc1-c1cnn(C(C)C)c1
IC50 (cell growth or viability, MTT; 48 h): 0.09 µM

Cc1sc2c(c1C)C(c1ccc(Cl)cc1)=N[C@@H](CC(=O)NCCN(C)CCCCNC(=O)CCCCOc1cccc3c1C(=O)N([C@H]1CCC(=O)NC1=O)C3=O)c1nnc(C)n1-2
IC50 (cell growth or viability, CCK-8; 72 h): 0.81 µM

CCOC(=O)/C=C1\S/C(=N\N=C\c2cccc3cc4ccccc4nc23)N(c2ccc([N+](=O)[O-])cc2)C1=O
IC50 (cell growth or viability, MTT; 48 h): > 50 µM

O=C(/C=C/c1ccccc1)Nc1cc(-c2ccnc(N3CCC(CO)CC3)c2)ccn1
IC50 (cell growth or viability, MTT; 72 h): 0.0189 µM

CN1C(=O)CS/C1=N\N=C\c1cccc2cc3ccccc3nc12
IC50 (cell growth or viability, MTT; 48 h): > 50 µM

COc1ccc(C(=O)N2CCN(CC(OCc3ccc4ccccc4c3)c3ccc(Cl)cc3Cl)CC2)cc1 (centres unmarked)
IC50 (cell growth or viability, MTT; 24 h): 40.6 µM

COc1ccccc1CNC[C@](O)(COCc1ccccc1)[C@@H]1CC[C@@H](C)C[C@H]1OCc1ccccc1
IC50 (cell growth or viability, MTT; 72 h): 2.45 µM

Clc1ccc(C(Cn2cncn2)OCc2ccc(Br)cc2)c(Cl)c1 (centres unmarked)
IC50 (cell growth or viability, MTT; 24 h): 35.8 µM

COC1CC(=O)C2C(O)C=CC(O)C2C12Oc1cccc3cccc(c13)O2 (centres unmarked)
IC50 (cell growth or viability, resazurin; 72 h): 12.6 µM

Cc1ccnc(-c2cc(C(=O)O)ccn2)c1.F[P-](F)(F)(F)(F)F.F[P-](F)(F)(F)(F)F.[Ru+2].c1ccc(-c2ccccn2)nc1.c1ccc(-c2ccccn2)nc1
IC50 (cell viability; 48 h, dark): > 100 µM

COc1ccc(COC[C@](O)(CNCc2ccc(F)cc2)[C@@H]2CC[C@@H](C)C[C@H]2OCc2ccc(OC)cc2)cc1
IC50 (cell growth or viability, MTT; 72 h): 3.18 µM

CCCc1cc2cc(-n3nc(N)c4c3CC(C)(C)CC4=O)cc(N3CCC(O)CC3)c2c(=O)[nH]1
IC50 (cell growth or viability, MTS): > 50 µM

O=C(CN1CCOCC1)N1CCN(CC(OCc2ccc3ccccc3c2)c2ccc(Cl)cc2Cl)CC1 (centres unmarked)
IC50 (cell growth or viability, MTT; 24 h): > 50 µM

COc1c(C)c(OCc2ccccc2)c(C)c(OCc2ccccc2)c1C(=O)/C=C/c1ccccc1
IC50 (cell growth or viability, SRB; 72 h): > 50 µM

CCCc1cc2cc(-n3nc(C(F)(F)F)c4c3CC(C)(C)CC4=O)cc(N3CCC(O)CC3)c2c(=O)[nH]1
IC50 (cell growth or viability, MTS): 3.31 µM
